Results pooled from the literature.
Each numbered part is a random draw from the data of one study; scales do not carry over between parts. Positions count from the first letter of the parent shown.

Sample 1
Target: RNA binding protein fox-1 homolog 2, RRM domain, GST-SBP tag (RBFOX2, Homo sapiens, UniProt O43251-10, residues 100-194)
Method: RNA Bind-n-Seq
Form: RNA
Medium: in vitro
Tested at: 365 nM
Setting: natural RNA segment, single round, ends assumed
Baseline: no-protein control
Direction: higher = stronger binding
All sequences stand within: GGGAGUUCUACAGUCCGACGAUC … UGGAAUUCUCGGGUGCCAA
Target sequence (chain): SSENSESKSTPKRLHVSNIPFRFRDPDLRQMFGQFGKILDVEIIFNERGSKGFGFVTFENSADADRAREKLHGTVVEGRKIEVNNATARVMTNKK
| Sequence | RBNS enrichment (R) |
| --- | --- |
| UUAGCAUUGCAUUUCAGUACUGACUGUGUAAGCUAAAUUGCUGAUCCAAAAUAAAAACCCAGACUAGAAUAGGGUUCUUAAAAUCAAGUAUCAAUACAAAAUAGAACACA | 0.586 |
| CGGCAUGGACGACGAGGAGGACUUCAACAAUUCACCCGCGCUGGGGAACAACAGCCCGUGGAACAGUAAACCUCCCGCCACUCAAGAGACCAAAUCAGAAAACCCCCCAC | 0.966 |
| CUGCUAAUGCAGGACAGUCUACUUUUCAGUUAAUUCAGAGCCCUUAGCUUGUGUUAUCAAAUGUUCUAAUGCAUAUUUAUAAGAGAAAAAAGGUUUAAAGUAUUUAUUCC | 0.542 |
| UGUACGCACAGUCUGUGCUGCAUGUCUGUCACCCAUACGCAGUCUCAAUCAUGGCCUUCACUGAGUGCUUUUGAGAUCCCAGUGCUAAUGUUUUAACUGCCUUUCUGUUG | 0.249 |
| UUUAUUUUGUUGGUUUACUUUGUGUUUUCUCCUUUUUGGGGGGUAUUCAGAGUGGGCCGGGCCCCUGGGCGAGACACAGCUACCUCUGUUGGCAUCUUUUUAAUACCAGG | 0.301 |
| UUCAAAUCUGGAUUGUUCUGUGAAGGGUCUCACUUUUGUAUCAUGAGACAAGAGUGCCUAUGAGAAACCAUUGCACCUGGGAGCACUGCUUGGAGCUAUCUCUACAUUUA | 0.434 |
| GACAGACCAUAUGUCCCACCAGCUGGGGAAUCUGACAAGAGGACAUAGGUGGCACUCUUUUUUUAAAGCUAUUUAUUGUAUCUAUUUUUAAAUAAAAUUGCCCAUCCUCA | 0.559 |
| AAAUGCACUUAAAUGAAAACAGUUAUUACAAAAGUUAAGAUUUAAAAAAAAGAAAAAGCAAGAGUUUUUAUUAUGAUGUAAUACCGGUAGAAUAUUGAAUAUUUAAAAGG | 0.914 |
| GGCUCACUGCAAACUCCGCCUCCCAGGUUCAAGCGAUUCUCCCACCUCAGCCUCCUGAGUUGGGUCCUACAGGCGCACACGACCACGCCCAGCUAAUUUUUUGUAUUUUU | 0.437 |
| CCUGGGACAGGAAAGAGAGGAACCAAUACCUUCAAGGCUCUUCUUCCUCACCGAGCAUGCUUCCCUAGGAUCCCGUCUUCCAGAGAACCUGUGGGCUGACUGCCCUCCGA | 16.1 |
| UUUUUCCUUUUAGUGUCUCUUGAAGCUACAUGGCUAGAAUAGAUAUGAUUUGGAGGGUUUAAUUUCCUUUUGUGAGGAUUACUGCUACUUCUUCCUAGCCAAUUCCUCAU | 0.239 |
| UGUUUAUUCCCUUUUCACUGGUCCCGUUCGUGAAUGAGUGAAUAUAAGAAGCCUGUCAGUAUUGCCAUGAGACUGUUUCAUAUGGUUACUUUUCUGUAUUCCCAAGGAAU | 0.849 |

Sample 2
Target: ABI1, truncated, D143A, DHFR fusion (Arabidopsis thaliana)
Method: DHFR PCA, deep sequencing
Medium: yeast
Setting: methotrexate growth selection, single substitutions
Together with: (+)-ABA 0.0091 µM
Baseline: wild-type fitted maximum
Direction: higher = stronger binding
Starting sequence: PYL1, truncated, DHFR fusion (Arabidopsis thaliana); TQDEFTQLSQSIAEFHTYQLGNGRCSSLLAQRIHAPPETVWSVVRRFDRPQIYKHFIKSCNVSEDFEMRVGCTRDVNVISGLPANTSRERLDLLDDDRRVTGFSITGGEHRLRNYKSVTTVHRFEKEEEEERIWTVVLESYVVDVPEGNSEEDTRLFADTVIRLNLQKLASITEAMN
| Variant | relative binding score |
| --- | --- |
| T173W | -1.3% |
| P83D | 12.1% |
| D3M | 28.1% |
| I105R | 1.68% |
| L138D | 4.5% |
| L20W | 1.59% |
| E131D | 44.2% |
| R32K | 29.6% |
| I162V | 31.8% |
| Y115R | 1.39% |
| F5S | 3.99% |
| E131T | 48.7% |
| F103S | -1.51% |
| G102P | -2.23% |
| S80I | 26.6% |
| V78S | 14.1% |
| D144E | -0.302% |
| N165M | -0.191% |
| F103W | 0.0469% |
| S59Q | 12.5% |
| E67T | 15.3% |
| T106E | 8.26% |
| F15H | 11.2% |

Sample 3
Target: Prothrombin, mature alpha-thrombin (F2, Homo sapiens, UniProt P00734)
Method: aptamer microarray, sandwich
Form: DNA with 2'F-ANA
Medium: in vitro
Tested at: 200 nM
Setting: whole 15-mer aptamer, many near background
Together with: Cy3 exosite-II aptamer, 400 nM
Direction: higher = stronger binding
Sequence: GGTTGGTGTGGTTGG
| Modification | mean fluorescence intensity [a.u.] |
| --- | --- |
| 2'F-ANA at 1 3 4 5 9 11 14 15 | 42.9 |
| 2'F-ANA at 1 5 6 9 11 13 15 | 50.2 |
| 2'F-ANA at 2 4 5 8 10 11 12 13 | 44.5 |
| 2'F-ANA at 2 5 7 11 14 | 47 |
| 2'F-ANA at 2 3 5 6 7 10 13 15 | 47.3 |
| 2'F-ANA at 1 2 4 5 9 10 | 47.3 |
| 2'F-ANA at 2 7 13 15 | 401 |
| 2'F-ANA at 1 3 5 6 8 9 10 11 13 14 15 | 50.6 |
| 2'F-ANA at 1 2 4 9 10 | 47.9 |
| 2'F-ANA at 1 3 5 6 8 9 12 13 14 | 99.2 |
| 2'F-ANA at 1 2 3 4 5 6 8 9 10 11 14 15 | 61.6 |
| 2'F-ANA at 1 2 3 7 8 9 10 | 70.2 |
| 2'F-ANA at 1 2 3 4 6 8 10 12 14 | 61.2 |
| 2'F-ANA at 1 2 4 5 7 10 11 12 13 14 15 | 47.2 |
| 2'F-ANA at 5 6 7 11 14 | 46 |
| 2'F-ANA at 1 5 6 7 8 12 13 | 114 |
| 2'F-ANA at 2 3 5 6 8 9 10 11 12 14 | 48.6 |
| 2'F-ANA at 1 2 6 9 10 11 12 | 61.1 |
| 2'F-ANA at 2 3 4 5 6 7 11 | 72.8 |
| 2'F-ANA at 1 3 4 12 13 | 368 |

Sample 4
Target: Ras GTPase-activating protein-binding protein 1, full length (G3BP1, Homo sapiens, UniProt Q13283)
Chain of UniProt Q13283 (whole entry, looked up): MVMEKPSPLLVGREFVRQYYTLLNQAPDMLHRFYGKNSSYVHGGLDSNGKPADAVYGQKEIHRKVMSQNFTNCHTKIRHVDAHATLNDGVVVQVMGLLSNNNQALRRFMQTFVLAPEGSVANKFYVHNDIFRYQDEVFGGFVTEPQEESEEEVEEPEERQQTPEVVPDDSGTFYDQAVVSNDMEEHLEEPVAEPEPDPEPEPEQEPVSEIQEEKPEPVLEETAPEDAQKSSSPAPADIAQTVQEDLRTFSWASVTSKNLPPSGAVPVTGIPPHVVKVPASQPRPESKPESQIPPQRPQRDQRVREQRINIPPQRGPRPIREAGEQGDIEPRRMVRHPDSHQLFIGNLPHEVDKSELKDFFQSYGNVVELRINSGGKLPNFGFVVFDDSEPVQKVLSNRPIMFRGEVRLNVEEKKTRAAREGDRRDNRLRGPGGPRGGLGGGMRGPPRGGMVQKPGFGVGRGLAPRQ
Method: RNA Bind-n-Seq
Form: RNA
Medium: in vitro
Tested at: 200 nM
Setting: whole 134-nt RNA, ends assumed
Together with: 150 mM LiCl
Baseline: input library
Direction: higher = stronger binding
All molecules: 7-deaza-guanosine replaces G
All sequences stand within: GGGAGUUCUACAGUCCGACGAUC … UGGAAUUCUCGGGUGUCAAGG
| Sequence | log2 enrichment |
| --- | --- |
| CUCAAGUCCUGUGCUACACAUCGUAUGUACCGAAUCGGUUUUUUUGGUGGAGGAAAGUAUUAUGUUACGCCGUUCGGAUCUGCACUUCCA | 0.296 |
| GUCCUGUGCUACACAUCGUAUGUACCGAAUCGGGGAAAAAGGAAAAAGGGAAAAAGGGAAAGUAUUAUGUUACGCCGUUCGGAUCUGCAC | -0.142 |
| AGUCCUGUGCUACACAUCGUAUGUACCGAAUCAAACCCCCCCAAACCCAAACCCAAAAAAGUAUUAUGUUACGCCGUUCGGAUCUGCACU | 0.29 |
| UCUCUCUCUUUCCCUCUAGGGUCACAUCUCCCAGGAAGAUCUCACUUCCCCACAGAAGCUCUUGGCCUGGCCUCCUGCAGUGCCACGCUC | 0.75 |
| UGGCCCUGGUGGCAUGCGGGGAGGAAGAGGUCGCCUCAUGGAUCGUGGUGGUCCCGGUGGAAUGUUCAGAGGUGGCCGUGGUGGAGACAG | 0.741 |
| GCAGGAAGUAAAAACAAAUGGAAAUGCAUCGGAUAGUGGCAGGGGUGGGGGUUGCUAAGGAAAGGGUGGGAUGGGAGUGGGUAAAGAGUU | -0.0603 |
| UUGUGGUAUUUUAUUUACUUAUUUUUUUAAAUCUUCCAUUACAGCCAUGCCUUUCUUGGACAUCCAGAAAAGGUUCGGCCUUAACAUAGA | 1.38 |
| AAAUGGUAGUGUGCGGAGUUUUUUUUUCUUCCUUCUUUUAAAAAUGGUUGUUUAAGACUUUAACAAUGGGAACCCCUUGUGAGCAUGCUC | -2.2 |
| CCUGUGCUACACAUCGUAUGUACCGAAUCGGGAAAAAAAGGGAAAAAAAGGAAAAAAAGGGAAAGUAUUAUGUUACGCCGUUCGGAUCUG | 0.138 |
| CAAGUCCUGUGCUACACAUCGUAUGUACCGAAUCGGGUUUGGGAAAGGGUUUGGGAAAGUAUUAUGUUACGCCGUUCGGAUCUGCACUUC | -0.921 |
| AAGUCCUGUGCUACACAUCGUAUGUACCGAAUCGGGUUUGGGAAAAAAAGGGUGGGAAAGUAUUAUGUUACGCCGUUCGGAUCUGCACUU | -0.788 |

Excerpt of the above (sample 4):
| Sequence | log2 enrichment |
| --- | --- |
| UGGCCCUGGUGGCAUGCGGGGAGGAAGAGGUCGCCUCAUGGAUCGUGGUGGUCCCGGUGGAAUGUUCAGAGGUGGCCGUGGUGGAGACAG | 0.741 |
| CAAGUCCUGUGCUACACAUCGUAUGUACCGAAUCGGGUUUGGGAAAGGGUUUGGGAAAGUAUUAUGUUACGCCGUUCGGAUCUGCACUUC | -0.921 |
| AAAUGGUAGUGUGCGGAGUUUUUUUUUCUUCCUUCUUUUAAAAAUGGUUGUUUAAGACUUUAACAAUGGGAACCCCUUGUGAGCAUGCUC | -2.2 |
| AAGUCCUGUGCUACACAUCGUAUGUACCGAAUCGGGUUUGGGAAAAAAAGGGUGGGAAAGUAUUAUGUUACGCCGUUCGGAUCUGCACUU | -0.788 |
